Published values collected from several papers.
Compare with care: the assays were run in different laboratories. ± marks the error that the study gave.

| Structure (SMILES) | target or system | assay | system | setting | scale | quantity | value |
| --- | --- | --- | --- | --- | --- | --- | --- |
| C=CC(=O)Nc1cccc(Cn2ncc3cnc(Nc4cnn(CCOC)c4)nc32)c1 | AKT3 human | binding, KINOMEscan |  | 100 nM | lower = stronger binding | percent of control | 100% |
| C[n+]1ccc(/C=N/NC(=O)c2ccc3ccc(C(=O)N/N=C/c4cc[n+](C)cc4)nc3n2)cc1 | myc22 MYC G4-DNA parallel | FRET melting |  | 1 µM, K1 buffer, DNA 0.2 µM |  | ΔTm | 6.9 ± 0.2 °C |
| COc1cc(O)ccc1CCC(c1ccc(O)cc1)c1cc2c(c(C)c1O)OC(c1ccc(O)cc1)CC2 (mixture of isomers) |  |  | human blood | 10 µM, together with: A23187 |  | 20-OH-LTB4 level | 147 ± 75 pg/mL |
| C[n+]1ccc(/C=N/NC(=O)c2cc(C(=O)N/N=C/c3cc[n+](C)c4ccccc34)ncn2)c2ccccc21 | myc22 MYC G4-DNA parallel | FRET melting |  | 1 µM, K1 buffer, DNA 0.2 µM |  | ΔTm | 3.2 ± 0.2 °C |
| Cc1ncsc1-c1ccc(C(C)NC(=O)C2CC(O)CN2C(=O)C(NC(=O)CCCCCCCCCCN2CCCC(Nc3ncc(Cl)c(Nc4ccccc4S(=O)(=O)C(C)C)n3)C2)C(C)(C)C)cc1 (stereo not drawn) | 22Rv1 | RNA-seq, measured: PER3 mRNA |  | concentration not given | baseline: DMSO | log2 fold change | -1.24 |
| CNS(=O)(=O)Nc1nccc(Cc2c(C)c3ccc(Oc4ncccc4F)cc3oc2=O)c1F | SK-N-AS | cell viability, CellTiter-Glo |  | 7 days |  | IC50 | 6.92 nM |
| COC1CN([C@H]2CC[C@H]([C@@]3(C)Oc4c(Cl)cc(C(=O)NCc5c(SC)cc(C)[nH]c5=O)c(C)c4O3)CC2)C1 |  | RNA-seq, measured: ENAH mouse homolog | mouse, HT-1376 xenograft, whole blood | dose not given | baseline: vehicle | log2 fold change | 0.758 |
| C[n+]1ccc(/C=N/NC(=O)c2ccc3ccc4ccc(C(=O)N/N=C/c5cc[n+](C)c6ccccc56)nc4c3n2)c2ccccc21 | myc22 MYC G4-DNA parallel | FRET melting |  | 1 µM, K1 buffer, DNA 0.2 µM |  | ΔTm | 23.8 ± 0.5 °C |
| Nc1ncc(-c2cc(-c3cnn(CC(F)(F)F)c3)ncc2F)nc1C(=O)NC1CNCC(F)C1 (stereo not drawn) | CDK4-cyclinD3 | KINOMEscan competition binding |  | 1 µM | baseline: DMSO control | remaining binding | 93% |
| CN1CCCNC(=O)c2cccc(c2)C(=O)NCCCN(C)CCCNc2cccc3c2C(=O)c2cccc(c2C3=O)NCCC1 | SAS | RNA-Seq, measured: SLFN5 mRNA |  | 1 µM, 6 h | baseline: untreated cells | log2 fold change | 1.71 |
| C=C(NC(=O)c1csc(-c2nc3c(cc2O)-c2nc(cs2)C(=O)NC(C(C)O)C(=O)NC(=C(C)OC)c2nc(cs2)C(=O)NC2c4nc(cs4)C(=O)NC(COC(=O)c4c5c6c(cccc6n4O)COC(=O)C(OC4CC(C)(O)C(N(C)C)C(C)O4)C2OC5)c2nc-3cs2)n1)C(N)=O (stereo not drawn) | Streptococcus pneumoniae |  | -4, immunocompromised mice, lung | 16 mg/kg/day once daily, 24 h post-dose |  | lung bacterial load | 4.38 log10 CFU/lung |
| O=C(N/N=C/c1ccc(C[n+]2ccccc2)cc1)N/N=C/c1ccc(C[n+]2ccccc2)cc1 | myc22 MYC G4-DNA parallel | FRET melting |  | 1 µM, K1 buffer, DNA 0.2 µM, together with: ds26 10 µM |  | ΔTm | 4.3 ± 0.4 °C |

A few entries again:
| Structure (SMILES) | target or system | assay | system | setting | scale | quantity | value |
| --- | --- | --- | --- | --- | --- | --- | --- |
| C=C(NC(=O)c1csc(-c2nc3c(cc2O)-c2nc(cs2)C(=O)NC(C(C)O)C(=O)NC(=C(C)OC)c2nc(cs2)C(=O)NC2c4nc(cs4)C(=O)NC(COC(=O)c4c5c6c(cccc6n4O)COC(=O)C(OC4CC(C)(O)C(N(C)C)C(C)O4)C2OC5)c2nc-3cs2)n1)C(N)=O (stereo not drawn) | Streptococcus pneumoniae |  | -4, immunocompromised mice, lung | 16 mg/kg/day once daily, 24 h post-dose |  | lung bacterial load | 4.38 log10 CFU/lung |
| O=C(N/N=C/c1ccc(C[n+]2ccccc2)cc1)N/N=C/c1ccc(C[n+]2ccccc2)cc1 | myc22 MYC G4-DNA parallel | FRET melting |  | 1 µM, K1 buffer, DNA 0.2 µM, together with: ds26 10 µM |  | ΔTm | 4.3 ± 0.4 °C |
